# Published values collected from several papers.
# Parts stem from different laboratories: compare values within a part only. Substitutions count along the parent as printed.

# Series 1
# Target: ABI1, truncated, D143A, DHFR fusion (Arabidopsis thaliana)
# Technique: DHFR PCA, deep sequencing
# Sample: yeast
# Setting: methotrexate growth selection, single substitutions
# Together with: (+)-ABA 17 µM
# Reference: wild-type fitted maximum
# Reading: higher = stronger binding
# Starting sequence: PYL1, truncated, DHFR fusion (Arabidopsis thaliana); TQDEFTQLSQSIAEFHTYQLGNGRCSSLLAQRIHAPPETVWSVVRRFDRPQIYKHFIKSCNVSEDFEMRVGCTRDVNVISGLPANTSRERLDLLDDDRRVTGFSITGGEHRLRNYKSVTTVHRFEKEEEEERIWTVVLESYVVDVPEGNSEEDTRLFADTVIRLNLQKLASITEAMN
Substitution,relative binding score [%]
Q167H,73.1
T154S,15.4
R111W,5.1
R32T,83.5
V43I,90.9
P83A,61.1
L82H,11.8
F56S,-0.405
I162D,-3.76
M176E,79.9
G108Q,1.34
K168H,82.3
H55Y,77.6
R24Q,95.2
L82E,-4.31
Q31C,27.7
N177A,104

# Series 2
# Target: RNA binding protein fox-1 homolog 2, RRM domain, GST-SBP tag (RBFOX2, Homo sapiens, UniProt O43251-10, residues 100-194)
# Technique: RNA Bind-n-Seq
# Form: RNA
# Sample: in vitro
# Tested at: 365 nM
# Setting: natural RNA segment, single round, ends assumed
# Reference: no-protein control
# Reading: higher = stronger binding
# Shared flanks, not repeated: GGGAGUUCUACAGUCCGACGAUC … UGGAAUUCUCGGGUGCCAA
# Residues (chain): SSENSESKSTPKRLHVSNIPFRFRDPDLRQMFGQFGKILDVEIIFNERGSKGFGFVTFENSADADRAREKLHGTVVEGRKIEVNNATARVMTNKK
Sequence,RBNS enrichment (R)
ACCCUUCUGGCCUUUUAGCGUCUUUGAAGGAGACCAGACAUGAGUGAAUACCUAGGAGAGUGUCAGCAUGUUUCUGGAAAAUUGGCAGAGACCAAGCCCUGCUGCAGAUU,7.1
UAUCCUCUCAUGGGUGAUUAUCUCAGUGGUGUCACCAGGGGCUUCCUCCCAGAAGUCAGUCAUCCCCAGGCCGUGCACCCUUUUCAGCUGGAUGAGAGCCAGGGAUGCAU,0.48
UGUGGAGUAUUUACUUGCUCAGUAACUGUGACUGUUGUCUAUUGAGACCUAGCCUAGUUUUCCUGCAGACAAUGAAUGAAGUGUGCUCAUUGAAAUAAAAUACAGAGUCA,0.405
UGUAUAACAGAUUAUUGUUCAUACUUGUAAAGCAUCUUAUGUCAUUGAGAAUAUAAAGAACAGUGCCUUAGAAGACAGUGAAAGGUAAGCUCUAGCUUAAUGUCUAUGAU,0.41
UCCCUGGACACCUUGGUCUGGCUCUUGUGCCAAGGGCUGAAGGAGGUACCCUCUUGGCAGAUGGGGGCAUCACUUGCUUCCUUUGGGAAGCUCUAAGGUUGCUGCAGUCA,0.408
GAUUCUGAUGUCAGUAUUGUGUCACCUGAGCGGGAUGAUUACCUGAGUACCAUAGGAACUUUGUACCAGUUGGAAUUUAAGUGGACUGUUUGCUGCUUUUGUUCGCAUUG,0.456
GGAAGCCGGGUCUUGCGAGCUGGAGAAAUGGACUGGAUGAGGGCUCUAGGGGUGGGCUGUUUACACACUCCAGGAAUCUAGGGGUCGGUGUCUCCUUCCUGGAGAGGCUA,0.976
CUCUCUGAGCAGAGGAGCAGGAAUCCCUCAAGCAGCAGCCUGGUCUUGGCUGGUGGGCAGAUGCAAAUAGCUUUUGCUGUUAUUAAUGAAGUAAUUACUAAAUGCACUUA,0.339
GAAAAGUUAAGAUAUCUGCUUACAUUGAUUUUGUAGACACAUUAAGUCAAGAUUUGGAAUUUAAGUCACUGGCAGGUAUCUGUGCAUUCAUAGAACUUAUAAAGGUCCCA,0.522
UUUCAGCUGUUGAUGUAGUUUGGUUUGGAAACUAAGGGACCUGCCCACAGGAGCUGGAGUGAAGGUCUCUCCCCUUCCGCCGAGCCCGUCUGCCAGAGAGUGUCAGCUCU,0.308
AGAAUAUCUUUCAGAAUAUGGUUUCACCAUGAAACAGGGGUGGUAGAUUUAUUCCCUUGUGUCAGGCCAAAGAAGUUCUUACAAAGUACAGUGGGUAGUGUCUAAAGCGA,0.42
GGGCAUAUCUUUGUUAAAGUAGAUUUUUUCAAUGUUUUACAGAAUUAAUUUUCAAAAAAAAGUUUUUAUAAUGAAGUUGUUUAUUAAAAACUUCUGAAUGAUGUGCUUUG,1.32

# Series 3
# Target: Interferon regulatory factor 5, full length, phosphomimetic (IRF5, Homo sapiens, UniProt Q13568-2, residues 1-514, S451D/S453D/S456D/S462D)
# Technique: protein-binding microarray
# Form: double-stranded DNA, one strand shown
# Sample: in vitro
# Tested at: 940 nM top
# Setting: 60-bp whole probe
# Together with: salmon DNA 0.4 mg/ml
# Reference: random background probes
# Reading: higher = stronger binding
# Shared flanks, not repeated: GCCTAGCAC … GTCTTGATTCGCTTGACGCTGCTG
Sequence,fitted relative affinity
GACGGTATCGACACTGGGGAAGTGCTA,4.06 z-score
GACGAACTGGGTATCGAGACGTGCTAG,1.11 z-score
TTACGTTTCGACTTTCGGTTAGTGCTA,6.4 z-score
TCACATCTCATATAAATAACTGTGCTA,0.704 z-score
GACGGTATCGGGTCTGGGGACGTGCTA,4.69 z-score
TTAGGTATCCGTTTCCTTTAGTGCTAG,1.44 z-score
TTCCATTTCTGTTTTTGCTTGTGCTAG,2.94 z-score
TCATATATCTGTGTTATACTGTGCTAG,0.271 z-score
GACCATTTCGGGACTGGAGACGTGCTA,-0.126 z-score
GACGAACTGGACTATCGGGACGTGCTA,-0.149 z-score
TTAGGTATCGACTACCGGTTAGTGCTA,6.67 z-score
TTAGATTTCGGGTTTCGTTTAGTGCTA,4.49 z-score
GACGGTCTCCTTATCCTCACGTGCTAG,0.361 z-score
GCCCCTTTCCTTTGCCTCTGGTGCTAG,1.01 z-score
GACGGTATCGGTATCGGTACGTGCTAG,9.91 z-score

# Series 4
# Target: Fragile X messenger ribonucleoprotein 1, C-terminal low-complexity region (Fmr1, Mus musculus, UniProt P35922)
# Technique: RNA Bind-n-Seq
# Form: RNA
# Sample: in vitro
# Tested at: 200 nM
# Setting: whole 134-nt RNA, ends assumed
# Together with: 150 mM LiCl
# Reference: input library
# Reading: higher = stronger binding
# All molecules: 7-deaza-guanosine replaces G
# Shared flanks, not repeated: GGGAGUUCUACAGUCCGACGAUC … UGGAAUUCUCGGGUGUCAAGG
Sequence,log2 enrichment
CCUGUGCUACACAUCGUAUGUACCGAAUCGGGUUUUUUUGGGUUUUUGGGAAAAAAAGGGAAAGUAUUAUGUUACGCCGUUCGGAUCUGC,-1.9
GCAGGAAGUAAAAACAAAUGGAAAUGCUUCGGAUAGUGGCAGGGGUGGGGGUUGCUAAGGAAAGGGUGGGAUGGGAGUGGGUAAAGAGUU,1.34
AGUCCUGUGCUACACAUCGUAUGUACCGAAUCGGGAAAAAAAGGGUUUUUGGGAGGGAAAGUAUUAUGUUACGCCGUUCGGAUCUGCACU,-1.87
CACAGACAACACGCACCCACACAGACACAGAGGGAAGGGGUUGGGAUGGAGACAGGGUGCACAGCAGGGCGGGGUAGGACCCCAGCCCCU,0.393
UCCUGUGCUACACAUCGUAUGUACCGAAUCGGGAAAAAAAGGGAAAAAGGGUUUUUGGGAAAGUAUUAUGUUACGCCGUUCGGAUCUGCA,-1.56
AGUCCUGUGCUACACAUCGUAUGUACCGAAUCGGGAAAAAAAGGGAAAGGGAAAGGGAAAGUAUUAUGUUACGCCGUUCGGAUCUGCACU,-0.975
GUCCUGUGCUACACAUCGUAUGUACCGAAUCGGGGUUUGGGGAAAAAGGGGAAAGGGGAAAGUAUUAUGUUACGCCGUUCGGAUCUGCAC,0.52
CCUGUGCUACACAUCGUAUGUACCGAAUCGGGGAAAAAAGGGAAAAAAGGGAAAAAAGGGGAAAGUAUUAUGUUACGCCGUUCGGAUCUG,0.691
UCAAGUCCUGUGCUACACAUCGUAUGUACCGAAUCGGUUUUUUUGGAGGUUUGGAAAGUAUUAUGUUACGCCGUUCGGAUCUGCACUUCC,-1.29
UCAAGUCCUGUGCUACACAUCGUAUGUACCGAAUCGGGGUUGGGGUUGGGGUUGGAAAGUAUUAUGUUACGCCGUUCGGAUCUGCACUUC,-1.27
ACCAUGCAGGUGGGCAUCUUUGGGAAGUGGGGCAAGGGGGGGAUAGGGAGGGUGGUAACACUUUGGGAACAGGUGGUCCCAGGUCGUUUC,0.956

# Series 5
# Target: CCNE2, cyclin fold, Cln2 fusion (human)
# Technique: yeast growth competition, sequencing
# Sample: yeast
# Setting: strong parent motif
# Reference: not given
# Reading: higher = stronger binding
# Starting sequence: CDKN1A docking peptide (human); SKACRRLFGPVDS; partner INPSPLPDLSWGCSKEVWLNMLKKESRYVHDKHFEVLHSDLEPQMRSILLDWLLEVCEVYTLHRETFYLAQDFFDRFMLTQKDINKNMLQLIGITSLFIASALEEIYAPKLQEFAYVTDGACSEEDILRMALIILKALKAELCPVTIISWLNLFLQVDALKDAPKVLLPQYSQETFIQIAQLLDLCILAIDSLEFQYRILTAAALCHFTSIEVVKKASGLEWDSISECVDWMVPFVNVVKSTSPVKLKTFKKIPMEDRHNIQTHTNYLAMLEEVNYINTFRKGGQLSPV
Substitution,normalised enrichment score
P10M,2.49
V11C,4.12
S1A,3.52
F8N,0.237
V11I,3.89
R5I,0.226
P10E,4.26
R5W,0.648
G9C,4.11
P10W,1.99
D12M,2.76
A3H,2.71
R5K,1.37
C4M,0.762
L7A,0.135
R6D,0.815
G9A,4.42
G9T,4.31
F8E,-0.405
A3N,-0.317
G9V,4.3
F8D,0.34
A3Y,1.6
K2D,3.09
R6Q,3.49

# Series 6
# Target: Histone acetyltransferase KAT6A, winged helix 1, GST fusion (KAT6A, Homo sapiens, UniProt Q92794, residues 1-85)
# Technique: protein binding microarray
# Form: double-stranded DNA, one strand shown
# Sample: in vitro
# Tested at: not given
# Setting: 8-mer, flanks averaged, mean of 2 arrays, mostly near background
# Reference: not given
# Reading: higher = stronger binding
# Target sequence (chain): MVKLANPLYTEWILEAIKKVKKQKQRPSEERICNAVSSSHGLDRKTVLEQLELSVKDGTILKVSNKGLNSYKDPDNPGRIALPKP
Sequence,E-score
ATTAACCG,0.204
CGCGGGAA,0.398
AGCGGGGC,0.359
CAAATCAC,-0.0268
GATCCCCC,-0.0812
CATATACA,-0.0938
GTTAAGCA,0.0989
ATTGCACA,-0.258
CAATGTTC,-0.056
ATCAAGAC,-0.23
ATGGGATG,-0.22
CGCAGACC,0.237
AAGAAATG,-0.234
ATCATACG,-0.00379
AAACGACA,-0.063
ACAGAAGA,-0.11
TACTTTCA,-0.127
GGGAGCCC,0.174
TAGGATAA,-0.117
AAATCGTC,0.0315
ATTCCGAA,0.0433
TCTAAAAA,-0.0565
AGTGTTGG,-0.106
ACCGTCGC,0.419
GCCTAGGC,0.0611

# Excerpt of the above (series 6):
Sequence,E-score
AGTGTTGG,-0.106
ATTGCACA,-0.258
CAATGTTC,-0.056
ATCATACG,-0.00379
TACTTTCA,-0.127
GGGAGCCC,0.174
AGCGGGGC,0.359
CGCAGACC,0.237
TCTAAAAA,-0.0565
ACAGAAGA,-0.11
CAAATCAC,-0.0268
TAGGATAA,-0.117
GTTAAGCA,0.0989
GCCTAGGC,0.0611
